# Measurements pooled from the literature.
# Every numbered part comes from another study and shows a few of its results, in no order. Changes are numbered by the printed parent chain.

# Sample 1 — target: CCND1, cyclin fold, Cln2 fusion (human); method: yeast growth competition, sequencing; matrix: yeast; setting: weak parent motif; relative to: not given; direction: higher = stronger binding
# Starting sequence: CDC25A docking peptide (human); PPHRRRLLFACSP
Substitution,normalised enrichment score
PPHYRRLLFACSP [R4Y],0.0689
PPHRRRLKFACSP [L8K],0.0302
PPHRRRLLFALSP [C11L],0.292
PPHRRRLLFQCSP [A10Q],0.324
PPHRRRLLAACSP [F9A],0.143
PPHRIRLLFACSP [R5I],0.622
PPHRRRLLFNCSP [A10N],-0.135
PPHRRRLRFACSP [L8R],-0.175
PPHRRRLLFACST [P13T],0.469
PPHRRRLLFACSS [P13S],0.164
PPHRRTLLFACSP [R6T],0.142
PPHRRRLLFACSG [P13G],0.522
PPHRRRYLFACSP [L7Y],0.226

# Sample 2 — method: protein-binding microarray; form: double-stranded DNA, one strand shown; matrix: in vitro; tested at: 2200 nM top; setting: 60-bp whole probe; with: salmon DNA 0.4 mg/ml; relative to: random background probes; direction: higher = stronger binding; constant ends, left off below: GCCTAGCAC … GTCTTGATTCGCTTGACGCTGCTG
# Target: Interferon regulatory factor 7, full length, phosphomimetic (IRF7, Homo sapiens, UniProt Q92985, residues 1-503, S471D/S472D/S475D/S476D/S477D/S483D/S484D/S487D)
# Sequence of UniProt Q92985 (whole entry, unmodified, looked up): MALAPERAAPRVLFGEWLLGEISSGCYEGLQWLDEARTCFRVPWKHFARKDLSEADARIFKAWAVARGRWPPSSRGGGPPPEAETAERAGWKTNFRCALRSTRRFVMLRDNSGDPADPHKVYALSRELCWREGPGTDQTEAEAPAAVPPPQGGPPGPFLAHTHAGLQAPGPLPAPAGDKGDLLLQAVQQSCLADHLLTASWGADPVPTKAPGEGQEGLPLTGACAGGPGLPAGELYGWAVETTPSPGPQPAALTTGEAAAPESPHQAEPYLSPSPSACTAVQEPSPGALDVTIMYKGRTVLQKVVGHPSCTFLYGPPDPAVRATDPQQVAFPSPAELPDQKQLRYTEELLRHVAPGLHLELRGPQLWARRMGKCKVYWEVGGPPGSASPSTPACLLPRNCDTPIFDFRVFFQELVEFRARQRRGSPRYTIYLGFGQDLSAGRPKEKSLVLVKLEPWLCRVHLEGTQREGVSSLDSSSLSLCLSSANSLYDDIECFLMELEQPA
Strand,fitted relative affinity
ACCCTCATTCTACTATCGATGTGCTAG,2.33 z-score
TTAGCTATCCTTTTCCTTTAGTGCTAG,1.88 z-score
GGGCACATCTTAACATATGAGTGCTAG,-0.107 z-score
CACGAACTGGGGTTTCGAGACGTGCTA,0.886 z-score
GTCGAACTGAGACTGGAGACGTGCTAG,0.023 z-score
TTAGGACTGCCTTTCCTTTAGTGCTAG,1.06 z-score
TTAGATTTCAGTCTCCATTAGTGCTAG,1.07 z-score
TCATCTTTCACTACTCCACTGTGCTAG,2.88 z-score
GTAGGTCTCGGTTTCGGTTAGTGCTAG,6.96 z-score
TTAGGTATCGGTTTCGGTTGGTGCTAG,9.5 z-score
GACGGTCTCGGTTTCGGGATGTGCTAG,4.77 z-score
TCAGTTCCTTATTTAAGACTGTGCTAG,1.68 z-score
TTAGGTATCCTACCGCTTTAGTGCTAG,0.41 z-score
GACGGTATCGGTTTAGGGACGTGCTAG,1.5 z-score
TCACCTTGAGGTTTTCTCACTGTGCTA,0.528 z-score
CTGGGCAGGATGAGTTCCAGGTGCTAG,-1.35 z-score
GACTGTATCGGTATCGGGACGTGCTAG,0.581 z-score
GACGATATCAGTCTCAAGACGTGCTAG,0.173 z-score
GACGGTTTCGACACTGGAGACGTGCTA,2.39 z-score

# Sample 3 — method: protein binding microarray; form: double-stranded DNA, one strand shown; matrix: in vitro; tested at: not given; relative to: not given; direction: higher = stronger binding
# Target: Histone acetyltransferase KAT6A, both winged helices, GST fusion (KAT6A, Homo sapiens, UniProt Q92794, residues 1-181)
# Setting: 8-mer, flanks averaged, mean of 2 arrays, mostly near background
# Residues (chain): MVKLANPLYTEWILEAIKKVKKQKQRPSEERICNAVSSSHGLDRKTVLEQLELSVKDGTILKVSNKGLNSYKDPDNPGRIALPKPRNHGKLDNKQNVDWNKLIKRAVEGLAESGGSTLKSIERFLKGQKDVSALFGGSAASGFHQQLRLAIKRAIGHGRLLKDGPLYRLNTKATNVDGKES
Strand,E-score
AAAGCCGG,0.305
AAGTCAGA,-0.106
GCCAGGAA,0.0644
ACTCGAAA,-0.127
CTCAGCCA,-0.176
CCCTATCA,-0.241
CCTAACCG,0.0797
TTGCACAA,-0.0275
CCTTCCAG,-0.211
ATCCTATG,-0.19
ATCGGGAC,0.0643
ATCAGAGC,-0.0694
CCACATTC,-0.167
CACATGTC,-0.0569
GTAGGGAC,0.00619
CGTAGCGA,0.126
ACCATCCA,-0.128
CATATGCA,-0.00752
ACTGATAT,-0.0294
AACACGGA,0.241
AACCTTAA,-0.162
CCGCACCG,0.262
ACCGGGCT,0.0934

# Sample 4 — method: RNA Bind-n-Seq; form: RNA; matrix: in vitro; tested at: 1 µM; setting: whole 134-nt RNA, ends assumed; with: 150 mM KCl; relative to: input library; direction: higher = stronger binding
# Target: Ras GTPase-activating protein-binding protein 1, C-terminal RGG region (G3BP1, Homo sapiens, UniProt Q13283)
# Sequence of UniProt Q13283 (whole entry, looked up): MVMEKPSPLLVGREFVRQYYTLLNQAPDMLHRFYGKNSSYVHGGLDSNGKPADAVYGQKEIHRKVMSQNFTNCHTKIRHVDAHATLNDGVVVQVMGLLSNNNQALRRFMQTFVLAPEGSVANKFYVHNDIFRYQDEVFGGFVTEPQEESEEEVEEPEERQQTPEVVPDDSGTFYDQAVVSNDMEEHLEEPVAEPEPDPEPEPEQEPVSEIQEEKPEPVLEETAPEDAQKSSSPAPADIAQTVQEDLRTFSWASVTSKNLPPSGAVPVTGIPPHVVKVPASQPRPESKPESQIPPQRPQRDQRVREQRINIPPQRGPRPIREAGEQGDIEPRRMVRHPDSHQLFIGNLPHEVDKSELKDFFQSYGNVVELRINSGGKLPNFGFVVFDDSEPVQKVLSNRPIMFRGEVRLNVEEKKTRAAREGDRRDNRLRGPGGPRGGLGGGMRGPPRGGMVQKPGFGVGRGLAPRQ
# Constant ends, left off below: GGGAGUUCUACAGUCCGACGAUC … UGGAAUUCUCGGGUGUCAAGG
Strand,log2 enrichment
CCUCAAGUCCUGUGCUACACAUCGUAUGUACCGAAUCGGAAAAAGGUGGUGGAAAGUAUUAUGUUACGCCGUUCGGAUCUGCACUUCCAG,-0.643
UCCUGUGCUACACAUCGUAUGUACCGAAUCGGUUUUUUGGGUUUUUUGGUUUUUUGGGGAAAGUAUUAUGUUACGCCGUUCGGAUCUGCA,-1.29
UCAAGUCCUGUGCUACACAUCGUAUGUACCGAAUCGGCCCGGGCCCGGGCCCGGAAAGUAUUAUGUUACGCCGUUCGGAUCUGCACUUCC,-1.47
CUCAAGUCCUGUGCUACACAUCGUAUGUACCGAAUCGGCGGGGCGGGGCGGGGAAAGUAUUAUGUUACGCCGUUCGGAUCUGCACUUCCA,0.738
UCAAGUCCUGUGCUACACAUCGUAUGUACCGAAUCGGGGAAGGGAAGGAAGGGGAAAGUAUUAUGUUACGCCGUUCGGAUCUGCACUUCC,0.99
UCCUGUGCUACACAUCGUAUGUACCGAAUCGGUUUUUGGGGUUUUUGGGGUUUUUGGGGAAAGUAUUAUGUUACGCCGUUCGGAUCUGCA,-0.0788
GUGGACAACGCGUACUGGCUGUGGACUUUCCAGGGACGCCUCCUGCAGAAGAACAACAAGGACCGCUUCUGCCAGCUGCUGUGGCGGCCC,-1.07
AGUCCUGUGCUACACAUCGUAUGUACCGAAUCGGGGAAAGGGGUUUUUGGGGAGGGGAAAGUAUUAUGUUACGCCGUUCGGAUCUGCACU,2.41
AAGUCCUGUGCUACACAUCGUAUGUACCGAAUCGGAGGAAAAAAAGGAAAAAAAGGAAAGUAUUAUGUUACGCCGUUCGGAUCUGCACUU,-1.87
UAACUUUAGAGGAGGAUCUGAUGGAUAUGGCAGUGGACGUGGAUUUGGGGAUGGCUAUAAUGGGUAUGGAGGAGGACCUGGAGGUGGCAA,-0.82
GUCCUGUGCUACACAUCGUAUGUACCGAAUCGGGGUUUGGGGUUUUUUUGGGGAGGGGAAAGUAUUAUGUUACGCCGUUCGGAUCUGCAC,2.17
UCCUGUGCUACACAUCGUAUGUACCGAAUCGGGGUUUUUUGGGUUUUUUGGUUUUUUGGAAAGUAUUAUGUUACGCCGUUCGGAUCUGCA,-0.801
CUCAAGUCCUGUGCUACACAUCGUAUGUACCGAAUCGGGAAGGGAAGGAAGGGGAAAGUAUUAUGUUACGCCGUUCGGAUCUGCACUUCC,1.11
UGGGAGGUGGAUUUUGUUUGUUUUUUUAGCUCAUUUCCAGGGGUGGGAAUUUUUUUUUAAUAUGUGUCAUGAAUAAAGUUGUUUUUGAAA,1.94

# Sample 5 — method: RNA Bind-n-Seq; form: RNA; matrix: in vitro; tested at: 365 nM; relative to: no-protein control; direction: higher = stronger binding
# Target: RNA binding protein fox-1 homolog 2, RRM domain, GST-SBP tag (RBFOX2, Homo sapiens, UniProt O43251-10, residues 100-194)
# Setting: natural RNA segment, single round, ends assumed
# Constant ends, left off below: GGGAGUUCUACAGUCCGACGAUC … UGGAAUUCUCGGGUGCCAA
Strand,RBNS enrichment (R)
CCAAGAAGGAGAUUGAUGCAUCAGGUUCAGUUUAACCUGGAAUAUCUGACUACCCCUGAAUCCACCCAGAAAGGGGGCCCAACACCCUUGUCCAUUUAUGGGUAUUUUUU,0.533
AAUCCUACAGUCAAUAGCUAAAGACGAAACCUUCAUUUCAGAACUCUCAUGAAUAUUCUUUAAGUGCUAUUUAAACCUCCCCAGCACUUAGAUGCAUAUAAUGGACUUAC,0.696
UGACUAGGGUCUUCUCUCUCCCCUGUUCUGAAUGGAGUAAAAGUCUGAUGCCAAGACAAAUAUUGGGAGCGAGCCUUCCUCACUAGCCAUGUCCAAAUAAUGAGCGUAUU,0.462
CCUCCUGAAAACUUGGACUCUGCAUGGUGCCACCACCAACCAUUGAGUAGUCUGAGGUGCUAACAUCAGGCCCUCCUGCUCACUCCUUGGCUGACCUGCCCCCCUACUUG,0.65
AGUAAAGAAGUGAAUGAGUGGCCAAAGUCUAUAGAGGCUUCCCUUUAGCAAGCCCUGAGAUAUAGUAACUUCCUUGGUUAUGAGUCUUGUUGAAUGACUCCUUUUGGAAA,1.64
ACACCGGAAGGUUUUUAAACACUAAAAUAUAUAAUUUAUAGUUAAGGCUAAAAAGUAUAUUUAUUGCAGAGGAUGUUCAUAAGGCCAGUAUGAUUUAUAAAUGCAAUCUC,0.726
AUAUCCACAAGAAGUGCCUCUUAGGUCUGUGACAGAGAGUGUGUCUCCAUUCCUCAGUUCCCAGAAAGGGGAGAGGUUUGGCCUAAAAAGCAUGUAGAUGGGGGAGAAAU,3.94
CUCGGAGAAGGAAGCAGAGGGUGUAAUGACUGGCACACCUGGACAGCUUUUCUCCAUCCGCAGACAGCCCUGUUCAGAGAGUACCGAGCACCAGCCCUGUGCGGCUUCCU,0.633
GAAAGGUCAGUAUUUUAGCAUUUUAAAAGAUGAGUUAUAUAAUGUCUGCUUCCAGCCAGUCUGCAACAUCUAGCCAUACCUUUCUUAUGCAAGCCAUUCAGUUAUCAGGA,0.474
UCUAGACCCCACCCUGGGUGUAUGUGAGUGUGCAAGGGAAGGUGUUGCAUCCCCAGGGGCUGCCGCAGAGGCCGGAGACCUCCUGGACUAGUUCGGCGAGGAGACUGGCC,2.47
AACCAUGGAGAAAUUAACUCAGUUAAUUUAAGACUUUGUUUGGUUUUUUUUUUUUAAGUUUAGUUUUAUUUUUUGUUUUACAAAUAUAUAAGCACCAUGUGCUAGGCCUC,0.596
AUGCUCAUACAAUAAUCUCAAGAGCCCUGUCUGUUUCGUAAUAGUAACUACUUCUCAUGAACACUACCCAAGGAGGAAGCCUGCACCUGGGAAGUGUGCAGUGUGAGCUC,0.614

# Excerpt of the above (sample 2):
Strand,fitted relative affinity
GACTGTATCGGTATCGGGACGTGCTAG,0.581 z-score
GACGGTCTCGGTTTCGGGATGTGCTAG,4.77 z-score
GACGATATCAGTCTCAAGACGTGCTAG,0.173 z-score
TTAGATTTCAGTCTCCATTAGTGCTAG,1.07 z-score
ACCCTCATTCTACTATCGATGTGCTAG,2.33 z-score
TTAGGTATCGGTTTCGGTTGGTGCTAG,9.5 z-score
TTAGGACTGCCTTTCCTTTAGTGCTAG,1.06 z-score
TCATCTTTCACTACTCCACTGTGCTAG,2.88 z-score
